Measured values of several laboratories.
Compare with care: the assays were run in different laboratories. Numbers after ± are the reported error.
T1: ATRX ADD domain 167-289 K251R/F284Y (Homo sapiens); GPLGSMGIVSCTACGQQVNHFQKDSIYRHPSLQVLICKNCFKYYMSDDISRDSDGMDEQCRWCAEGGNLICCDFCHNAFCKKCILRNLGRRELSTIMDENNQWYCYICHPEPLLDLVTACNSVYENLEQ
B1: GIGYF1 33-103 E44A/E45F/Q87A (Homo sapiens, UniProt O75420); chain KYKLADYRYGRAFMLALYVKENKVPEELQDKEFAAVLQDEPLQPLALEPLTEEEARNFSLSVNSVAVLRLM
B2: RRP1B 657-758 (Homo sapiens, UniProt Q14684); chain RRAKSSTATHPPGPAVQLNKTPSSSKKVTFGLNRNMTAEFKKTDKSILVSPTGPSRVAFDPEQKPLHGVLKTPTSSPASSPLVAKKPLTTTPRRRPRAMDFF
B3: PLXNC1 1198-1305 T1264V/R1265V (Homo sapiens, UniProt O60486); chain TVALNVVFEKIPENESADVCRNISVNVLDCDTIGQAKEKIFQAFLSKNGSPYGLQLNEIGLELQMGVVQKELLDIDSSSVILEDGITKLNTIGHYEISNGSTIKVFKK
B4: BRAF kinase 448-723 K723G/P722S/S720E/L716E/S713E/Q709R/L706S/A688R/Y673S/I666R/K630S/V600E/L588N/Q562R (Homo sapiens, UniProt P15056); sequence looked up; chain DDWEIPDGQITVGQRIGSGSFGTVYKGKWHGDVAVKMLNVTAPTPQQLQAFKNEVGVLRKTRHVNILLFMGYSTKPQLAIVTQWCEGSSLYHHLHASETKFEMKKLIDIARQTARGMDYLHAKSIIHRDLKSNNIFLHEDNTVKIGDFGLATEKSRWSGSHQFEQLSGSILWMAPEVIRMQDSNPYSFQSDVYAFGIVLYELMTGQLPYSNINNRDQIRFMVGRGSLSPDLSKVRSNCPKRMKRLMAECLKKKRDERPSFPRILAEIEELARELSG
B5: ERN1 32-440 (Homo sapiens, UniProt O75460); chain LLFVSTLDGSLHAVSKRTGSIKWTLKEDPVLQVPTHVEEPAFLPDPNDGSLYTLGSKNNEGLTKLPFTIPELVQASPCRSSDGILYMGKKQDIWYVIDLLTGEKQQTLSSAFADSLCPSTSLLYLGRTEYTITMYDTKTRELRWNATYFDYAASLPEDDVDYKMSHFVSNGDGLVVTVDSESGDVLWIQNYASPVVAFYVWQREGLRKVMHINVAVETLRYLTFMSGEVGRITKWKYPFPKETEAKSKLTPTLYVGKYSTSLYASPSMVHEGVAVVPRGSTLPLLEGPQTDGVTIGDKGECVITPSTDVKFDPGLKSKNKLNYLRNYWLLIGHHETPLSASTKMLERFPNNLPKHRENVIPADSEKKSFEEVINLVDQTSENAPTTVSRDVEEKPAHAPARPEAPVDSM
UniProt Q8NEZ5, sequence (whole entry, looked up): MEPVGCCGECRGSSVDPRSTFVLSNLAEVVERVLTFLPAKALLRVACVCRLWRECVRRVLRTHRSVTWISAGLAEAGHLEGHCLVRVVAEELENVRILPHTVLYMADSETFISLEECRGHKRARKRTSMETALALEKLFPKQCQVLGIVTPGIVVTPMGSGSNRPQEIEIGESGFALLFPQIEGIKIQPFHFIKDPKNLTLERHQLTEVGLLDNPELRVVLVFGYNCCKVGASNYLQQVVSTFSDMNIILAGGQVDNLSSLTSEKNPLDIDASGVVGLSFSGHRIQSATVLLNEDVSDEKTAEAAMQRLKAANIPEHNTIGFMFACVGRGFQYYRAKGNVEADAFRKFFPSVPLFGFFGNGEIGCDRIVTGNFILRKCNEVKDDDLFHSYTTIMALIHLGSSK
UniProt P11021, sequence (whole entry, looked up): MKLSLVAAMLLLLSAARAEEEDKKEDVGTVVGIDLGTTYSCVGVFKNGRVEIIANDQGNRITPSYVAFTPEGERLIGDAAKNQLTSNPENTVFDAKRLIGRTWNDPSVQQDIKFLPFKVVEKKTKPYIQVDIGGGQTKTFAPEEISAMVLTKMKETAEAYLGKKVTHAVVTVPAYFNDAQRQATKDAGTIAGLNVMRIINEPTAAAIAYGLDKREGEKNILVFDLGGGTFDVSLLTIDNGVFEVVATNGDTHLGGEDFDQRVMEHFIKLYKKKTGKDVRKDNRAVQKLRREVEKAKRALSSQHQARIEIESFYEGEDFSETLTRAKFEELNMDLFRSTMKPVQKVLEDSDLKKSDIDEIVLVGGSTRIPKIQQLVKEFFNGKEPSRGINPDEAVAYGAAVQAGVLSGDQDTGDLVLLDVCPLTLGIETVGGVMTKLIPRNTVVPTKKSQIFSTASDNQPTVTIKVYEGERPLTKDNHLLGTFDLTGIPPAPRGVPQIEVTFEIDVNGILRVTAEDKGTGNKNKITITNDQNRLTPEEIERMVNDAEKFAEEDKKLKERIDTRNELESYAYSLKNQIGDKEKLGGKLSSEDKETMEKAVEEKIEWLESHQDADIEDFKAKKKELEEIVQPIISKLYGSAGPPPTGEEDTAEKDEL
UniProt P38646, sequence (whole entry, unmodified, looked up): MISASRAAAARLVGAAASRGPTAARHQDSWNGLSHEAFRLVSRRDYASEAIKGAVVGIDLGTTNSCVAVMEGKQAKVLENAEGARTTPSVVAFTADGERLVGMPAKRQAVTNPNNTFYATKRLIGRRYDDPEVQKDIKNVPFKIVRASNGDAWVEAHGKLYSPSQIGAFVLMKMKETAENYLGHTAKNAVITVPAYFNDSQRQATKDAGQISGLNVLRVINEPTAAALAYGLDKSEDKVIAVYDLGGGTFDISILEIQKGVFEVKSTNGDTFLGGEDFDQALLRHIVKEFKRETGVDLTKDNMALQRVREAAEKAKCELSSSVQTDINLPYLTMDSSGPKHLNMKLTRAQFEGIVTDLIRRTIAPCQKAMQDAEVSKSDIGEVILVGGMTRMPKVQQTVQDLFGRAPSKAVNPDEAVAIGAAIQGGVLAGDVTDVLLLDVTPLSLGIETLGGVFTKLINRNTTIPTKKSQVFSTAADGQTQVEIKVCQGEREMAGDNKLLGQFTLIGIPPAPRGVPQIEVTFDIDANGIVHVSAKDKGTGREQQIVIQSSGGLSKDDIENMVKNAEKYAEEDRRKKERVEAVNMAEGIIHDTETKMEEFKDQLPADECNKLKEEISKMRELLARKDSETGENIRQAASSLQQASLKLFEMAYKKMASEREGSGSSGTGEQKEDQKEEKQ
UniProt P52198, sequence (whole entry, looked up): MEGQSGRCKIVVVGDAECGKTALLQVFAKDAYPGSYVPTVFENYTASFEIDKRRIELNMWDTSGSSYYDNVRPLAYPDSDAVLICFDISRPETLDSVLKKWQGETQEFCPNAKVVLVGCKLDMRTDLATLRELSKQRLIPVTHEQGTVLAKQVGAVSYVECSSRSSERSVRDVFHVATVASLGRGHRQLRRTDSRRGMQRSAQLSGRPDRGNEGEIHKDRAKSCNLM

For `GRGRGRGRGRGRGRGRGRGRGRGRGRGRGRGRGRGRGRGR ((GR)20 20 repeats; TAMRA label N-terminal)`, the Kd was 54.8 ± 9.9 nM (FUS 215-526 (Homo sapiens, UniProt P35637); fluorescence polarisation; peptide).
`ACDDQNPWRAYLDLLFPTDTLLLDLLW` — result for “mean fluorescence intensity”: 918 ± 226 a.u. (ex vivo fluorescence imaging; peptide, BALB/c mice, 4T1 tumour-bearing, kidney; intravenous, 5 nmol, 48 h post-injection; higher = more uptake).
For `ARTKQTARKS (H3C1 1-10)`, the Kd was 3600 nM (T1, ATRX ADD domain 167-289 K251R/F284Y (Homo sapiens); ITC; peptide).
`SPTF (BRIP1 peptide 990-993; N-acetyl, pS, C-amide)` gave a Kd of 1000 nM (BRCA1 BRCT domain; NMR titration; peptide).
For `GSGAGRETEV`, the binding intensity was 0.961 (human SCRIB PDZ3-4 tandem (MBP fusion); automated holdup; peptide, purified PDZ protein; concentration not given, unit not given; baseline: biotin control resin, higher = stronger binding).
With `B1 (GIGYF1 33-103 E44A/E45F/Q87A)` the Kd was 0.4 ± 0.3 nM (EIF4E2 52-234 Q159S/M161D/R202E (Homo sapiens, UniProt O60573-1); ITC; peptide).
With `B2 (RRP1B 657-758)` the Kd was 63.7 nM (PPP1CA 7-330 Q20R (Homo sapiens, UniProt P62136); ITC).
With `GEPPPGKPADDAGLV (BPC-157 (Homo sapiens))` the Kd was 100 nM (FBXO22 (Homo sapiens, UniProt Q8NEZ5); SPR; peptide).
`CALLLSAPRR (GOT2 (Gallus gallus); fluorescein label)` gave a Kd of greater than 150000 nM (HSPA9 mature A475W/V482F (Homo sapiens, UniProt P38646); FP; peptide).
`B3 (PLXNC1 1198-1305 T1264V/R1265V)` has a Kd of 30300 ± 9850 nM (RND2 1-227 (Homo sapiens, UniProt P52198); SPR).
With `GSGAGKETEC` the binding intensity was 0.425 (human SCRIB PDZ3-4 tandem (MBP fusion); automated holdup; peptide, purified PDZ protein; concentration not given, unit not given; baseline: biotin control resin, higher = stronger binding).
`B4` gave a Kd of 986 ± 133 nM (MAP2K1 (Homo sapiens, UniProt Q02750); BLI).
The Kd of `B5 (ERN1 32-440)` is reported as 660 ± 120 nM (HSPA5 28-654 (Homo sapiens, UniProt P11021); MST).
With `colistin` the MIC was 0.5 µg/mL (Escherichia coli; broth microdilution; clinical isolate RKI-No 131/08).
The Kd of `F9 heavy and light chains, activated (UniProt P00740)` is reported as 1.2 nM (F8 activated, A1/A2/A3-C1-C2 R336Q/R562Q/D519V/E665V (Homo sapiens); FXa generation, factor Xa generation rate; added: FX).

A few entries again:
For `GRGRGRGRGRGRGRGRGRGRGRGRGRGRGRGRGRGRGRGR ((GR)20 20 repeats; TAMRA label N-terminal)`, the Kd was 54.8 ± 9.9 nM (FUS 215-526 (Homo sapiens, UniProt P35637); fluorescence polarisation; peptide).
